Measurements collected from several papers.
Numbered parts are unrelated; each lists some results of a single study.
UniProt O95835, sequence (whole entry, looked up): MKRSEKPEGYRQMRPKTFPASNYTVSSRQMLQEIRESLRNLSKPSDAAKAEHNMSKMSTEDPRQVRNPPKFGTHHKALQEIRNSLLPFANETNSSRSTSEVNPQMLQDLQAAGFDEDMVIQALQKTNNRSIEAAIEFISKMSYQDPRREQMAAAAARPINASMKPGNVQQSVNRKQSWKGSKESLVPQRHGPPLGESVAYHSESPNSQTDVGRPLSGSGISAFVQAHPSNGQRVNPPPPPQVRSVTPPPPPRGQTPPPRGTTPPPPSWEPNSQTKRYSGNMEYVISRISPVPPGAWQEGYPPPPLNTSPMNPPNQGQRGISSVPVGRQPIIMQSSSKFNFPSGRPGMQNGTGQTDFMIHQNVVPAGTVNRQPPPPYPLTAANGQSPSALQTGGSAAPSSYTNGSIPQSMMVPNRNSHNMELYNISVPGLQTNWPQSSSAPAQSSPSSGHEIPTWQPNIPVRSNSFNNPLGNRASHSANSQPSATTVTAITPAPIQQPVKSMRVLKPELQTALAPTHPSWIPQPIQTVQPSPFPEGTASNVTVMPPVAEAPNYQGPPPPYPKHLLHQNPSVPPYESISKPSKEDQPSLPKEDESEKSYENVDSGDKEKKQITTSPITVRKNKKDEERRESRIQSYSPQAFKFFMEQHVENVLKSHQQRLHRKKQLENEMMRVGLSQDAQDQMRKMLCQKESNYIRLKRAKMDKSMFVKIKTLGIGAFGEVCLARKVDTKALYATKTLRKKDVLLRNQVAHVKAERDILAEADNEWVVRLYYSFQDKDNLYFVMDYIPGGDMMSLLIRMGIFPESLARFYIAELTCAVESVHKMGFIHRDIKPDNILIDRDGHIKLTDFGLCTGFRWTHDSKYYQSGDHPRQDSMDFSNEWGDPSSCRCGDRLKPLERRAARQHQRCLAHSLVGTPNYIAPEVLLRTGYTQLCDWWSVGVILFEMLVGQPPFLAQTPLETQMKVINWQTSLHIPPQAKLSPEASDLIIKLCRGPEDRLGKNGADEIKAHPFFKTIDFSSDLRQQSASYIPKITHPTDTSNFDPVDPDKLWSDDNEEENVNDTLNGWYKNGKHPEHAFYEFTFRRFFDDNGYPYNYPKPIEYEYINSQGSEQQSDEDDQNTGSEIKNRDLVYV
UniProt Q9P286, sequence (whole entry, looked up): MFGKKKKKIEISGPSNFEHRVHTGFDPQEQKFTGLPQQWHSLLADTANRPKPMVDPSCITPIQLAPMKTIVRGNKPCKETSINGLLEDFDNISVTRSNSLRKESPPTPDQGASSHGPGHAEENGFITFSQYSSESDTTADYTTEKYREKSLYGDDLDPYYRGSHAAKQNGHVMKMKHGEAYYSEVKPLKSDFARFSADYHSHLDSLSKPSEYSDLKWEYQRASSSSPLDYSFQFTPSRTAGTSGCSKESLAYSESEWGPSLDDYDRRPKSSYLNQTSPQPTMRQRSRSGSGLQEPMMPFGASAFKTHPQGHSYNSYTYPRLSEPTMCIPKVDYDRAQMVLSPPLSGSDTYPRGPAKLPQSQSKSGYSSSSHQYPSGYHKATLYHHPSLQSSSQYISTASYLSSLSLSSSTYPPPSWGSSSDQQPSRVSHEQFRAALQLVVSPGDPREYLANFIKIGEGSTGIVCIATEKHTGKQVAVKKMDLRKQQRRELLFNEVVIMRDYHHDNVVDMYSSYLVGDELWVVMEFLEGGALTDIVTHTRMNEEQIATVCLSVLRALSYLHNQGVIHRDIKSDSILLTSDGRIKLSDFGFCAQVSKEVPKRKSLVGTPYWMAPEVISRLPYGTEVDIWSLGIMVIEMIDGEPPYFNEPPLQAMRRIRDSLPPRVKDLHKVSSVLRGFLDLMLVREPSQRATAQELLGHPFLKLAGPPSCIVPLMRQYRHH
UniProt P42338, sequence (whole entry, looked up): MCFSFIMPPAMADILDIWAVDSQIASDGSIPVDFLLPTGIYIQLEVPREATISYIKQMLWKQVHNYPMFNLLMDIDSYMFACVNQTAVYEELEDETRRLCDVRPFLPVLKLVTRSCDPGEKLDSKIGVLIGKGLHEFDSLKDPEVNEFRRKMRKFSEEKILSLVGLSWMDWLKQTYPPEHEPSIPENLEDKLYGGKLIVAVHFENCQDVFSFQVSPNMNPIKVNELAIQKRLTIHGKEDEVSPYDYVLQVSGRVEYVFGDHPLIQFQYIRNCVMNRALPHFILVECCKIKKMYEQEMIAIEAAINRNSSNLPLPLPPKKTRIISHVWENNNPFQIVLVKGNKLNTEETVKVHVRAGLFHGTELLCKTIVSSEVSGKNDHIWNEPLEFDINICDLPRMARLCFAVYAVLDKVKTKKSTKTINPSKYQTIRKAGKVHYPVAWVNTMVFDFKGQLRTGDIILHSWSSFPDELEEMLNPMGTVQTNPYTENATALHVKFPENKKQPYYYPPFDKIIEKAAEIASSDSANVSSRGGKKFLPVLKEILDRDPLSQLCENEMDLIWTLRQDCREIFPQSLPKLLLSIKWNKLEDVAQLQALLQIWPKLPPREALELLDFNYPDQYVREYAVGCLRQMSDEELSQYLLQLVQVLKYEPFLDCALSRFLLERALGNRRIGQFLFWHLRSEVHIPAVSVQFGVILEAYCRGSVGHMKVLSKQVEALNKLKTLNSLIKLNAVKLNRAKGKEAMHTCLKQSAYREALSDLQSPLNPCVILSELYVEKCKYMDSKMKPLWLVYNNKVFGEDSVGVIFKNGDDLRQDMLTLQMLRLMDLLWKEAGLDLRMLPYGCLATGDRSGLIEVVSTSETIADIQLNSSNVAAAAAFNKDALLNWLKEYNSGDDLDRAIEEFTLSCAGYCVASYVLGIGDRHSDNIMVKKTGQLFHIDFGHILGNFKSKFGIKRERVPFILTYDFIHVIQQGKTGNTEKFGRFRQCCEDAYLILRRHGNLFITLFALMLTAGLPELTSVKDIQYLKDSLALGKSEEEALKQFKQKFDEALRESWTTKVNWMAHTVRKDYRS
UniProt Q96PY6, sequence (whole entry, looked up): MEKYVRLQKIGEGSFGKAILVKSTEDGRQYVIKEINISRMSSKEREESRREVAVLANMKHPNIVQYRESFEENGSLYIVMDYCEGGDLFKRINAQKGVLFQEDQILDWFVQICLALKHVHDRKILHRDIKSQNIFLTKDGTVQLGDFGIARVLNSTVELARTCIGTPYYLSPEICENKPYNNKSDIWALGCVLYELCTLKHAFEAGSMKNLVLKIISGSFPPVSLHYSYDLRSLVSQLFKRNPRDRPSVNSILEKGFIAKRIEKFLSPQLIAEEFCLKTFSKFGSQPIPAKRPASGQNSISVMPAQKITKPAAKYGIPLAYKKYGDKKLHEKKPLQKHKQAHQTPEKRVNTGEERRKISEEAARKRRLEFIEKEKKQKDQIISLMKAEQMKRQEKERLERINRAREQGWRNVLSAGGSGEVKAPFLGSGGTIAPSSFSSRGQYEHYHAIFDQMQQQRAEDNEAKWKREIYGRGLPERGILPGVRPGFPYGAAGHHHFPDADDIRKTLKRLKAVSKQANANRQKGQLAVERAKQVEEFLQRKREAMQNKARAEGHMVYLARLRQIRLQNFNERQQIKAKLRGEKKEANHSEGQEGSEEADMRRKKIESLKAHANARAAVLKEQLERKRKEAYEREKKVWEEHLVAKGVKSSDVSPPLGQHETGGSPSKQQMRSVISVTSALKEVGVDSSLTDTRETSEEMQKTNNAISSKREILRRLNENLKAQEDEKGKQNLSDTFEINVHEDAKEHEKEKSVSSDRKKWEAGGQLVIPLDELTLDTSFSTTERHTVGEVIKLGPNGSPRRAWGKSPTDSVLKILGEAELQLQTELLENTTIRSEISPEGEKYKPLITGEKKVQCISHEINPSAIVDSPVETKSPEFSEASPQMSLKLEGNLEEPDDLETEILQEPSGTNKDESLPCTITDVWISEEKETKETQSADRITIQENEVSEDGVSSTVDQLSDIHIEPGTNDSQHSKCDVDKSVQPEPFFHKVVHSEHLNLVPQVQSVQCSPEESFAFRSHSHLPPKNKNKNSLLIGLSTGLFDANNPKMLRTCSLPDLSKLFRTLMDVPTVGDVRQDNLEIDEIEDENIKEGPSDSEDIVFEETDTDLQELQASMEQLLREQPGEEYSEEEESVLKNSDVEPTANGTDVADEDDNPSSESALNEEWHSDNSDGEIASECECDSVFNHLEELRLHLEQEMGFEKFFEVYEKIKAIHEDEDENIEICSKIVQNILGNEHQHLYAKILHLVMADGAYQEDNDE
UniProt Q9UPE1, sequence (whole entry, looked up): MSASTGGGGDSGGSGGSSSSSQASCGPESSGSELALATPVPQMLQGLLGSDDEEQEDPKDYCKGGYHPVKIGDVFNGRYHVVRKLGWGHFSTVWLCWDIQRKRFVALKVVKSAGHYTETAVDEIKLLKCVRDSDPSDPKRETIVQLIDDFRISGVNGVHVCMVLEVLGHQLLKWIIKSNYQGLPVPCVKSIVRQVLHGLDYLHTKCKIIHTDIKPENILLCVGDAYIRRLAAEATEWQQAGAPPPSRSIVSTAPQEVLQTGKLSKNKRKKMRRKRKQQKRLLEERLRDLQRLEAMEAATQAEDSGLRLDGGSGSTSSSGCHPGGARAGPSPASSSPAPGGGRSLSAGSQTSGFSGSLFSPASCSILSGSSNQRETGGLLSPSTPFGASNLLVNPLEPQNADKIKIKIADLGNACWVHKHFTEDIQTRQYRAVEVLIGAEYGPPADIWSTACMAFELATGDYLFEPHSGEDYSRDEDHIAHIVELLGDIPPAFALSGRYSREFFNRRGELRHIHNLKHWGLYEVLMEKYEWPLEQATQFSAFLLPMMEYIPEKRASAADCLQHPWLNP

Set 1 — technique: RNA Bind-n-Seq; form: RNA; sample: in vitro; tested at: 200 nM; setting: whole 134-nt RNA, ends assumed; with: 150 mM KCl; reference: input library; direction: higher = stronger binding; endpoint: log2 enrichment
Target: Fragile X messenger ribonucleoprotein 1, C-terminal low-complexity region (Fmr1, Mus musculus, UniProt P35922)
Shared flanks, not repeated: GGGAGUUCUACAGUCCGACGAUC … UGGAAUUCUCGGGUGUCAAGG
UCCUGUGCUACACAUCGUAUGUACCGAAUCGGGUUUUUUGGUUUUUUGGGUUUUUUGGGGAAAGUAUUAUGUUACGCCGUUCGGAUCUGC: -0.213
UGGCCCUGGUGUCAUGCGGGGAGGAAGAGGUGGCCUCAUGGAUCGUGGUGGUCCCGGUGGAAUGUUCAGAGGUGGCCGUGGUGGAGACAG: -0.172
UCCUGUGCUACACAUCGUAUGUACCGAAUCGGGUUUUUUGGGGUUUUUUGGUUUUUUGGAAAGUAUUAUGUUACGCCGUUCGGAUCUGCA: 0.186
AGUCCUGUGCUACACAUCGUAUGUACCGAAUCGGGAGGGAAAAAAAGGGUUUUUGGGAAAGUAUUAUGUUACGCCGUUCGGAUCUGCACU: 0.229
GUCCUGUGCUACACAUCGUAUGUACCGAAUCGGUUUUUUGGUUUUUUGGUUUUUUGGGGAAAGUAUUAUGUUACGCCGUUCGGAUCUGCA: -0.741
UCAAGUCCUGUGCUACACAUCGUAUGUACCGAAUCGGGUUUUUGGGAGGGUGGGAAAGUAUUAUGUUACGCCGUUCGGAUCUGCACUUCC: 1.17
UCAAGUCCUGUGCUACACAUCGUAUGUACCGAAUCGGUGGAAAGGAAAAAAAGGAAAGUAUUAUGUUACGCCGUUCGGAUCUGCACUUCC: -0.513
GUCCUGUGCUACACAUCGUAUGUACCGAAUCGGGGUGGGGAAAAAAAGGGGUUUGGGGAAAGUAUUAUGUUACGCCGUUCGGAUCUGCAC: 0.572

Set 2 — technique: competition with immobilised ligand; tested at: 1 µM; endpoint: remaining binding
SMILES: O=C1CCc2cc(Nc3cc(OC4CCOCC4)c([N+](=O)[O-])cc3Cl)ccc2N1
Cyclin-dependent kinase 5 (CDK5, Homo sapiens, UniProt Q00535); cell-free assay: 97%
Mitogen-activated protein kinase kinase kinase 5 (MAP3K5, Homo sapiens, UniProt Q99683); cell-free assay: 84%
Macrophage colony-stimulating factor 1 receptor (CSF1R, Homo sapiens, UniProt P07333); cell-free assay: 96%
Tyrosine-protein kinase SYK (SYK, Homo sapiens, UniProt P43405); cell-free assay: 100%
Glycogen synthase kinase-3 alpha (GSK3A, Homo sapiens, UniProt P49840); cell-free assay: 100%
Ankyrin repeat and protein kinase domain-containing protein 1 (ANKK1, Homo sapiens, UniProt Q8NFD2); cell-free assay: 82%
Mitogen-activated protein kinase kinase kinase kinase 1 (MAP4K1, Homo sapiens, UniProt Q92918); cell-free assay: 100%
SRSF protein kinase 3 (SRPK3, Homo sapiens, UniProt Q9UPE1); cell-free assay: 100%
Serine/threonine-protein kinase PAK 5 (PAK5, Homo sapiens, UniProt Q9P286); cell-free assay: 100%
Phosphatidylinositol 4,5-bisphosphate 3-kinase catalytic subunit beta isoform (PIK3CB, Homo sapiens, UniProt P42338); cell-free assay: 97%
Insulin-like growth factor 1 receptor (IGF1R, Homo sapiens, UniProt P08069); cell-free assay: 86%
Serine/threonine-protein kinase Nek1 (NEK1, Homo sapiens, UniProt Q96PY6); binding: 40%
Serine/threonine-protein kinase LATS1 (LATS1, Homo sapiens, UniProt O95835); cell-free assay: 81%
Serine/threonine-protein kinase PLK3 (PLK3, Homo sapiens, UniProt Q9H4B4); cell-free assay: 88%

Set 3 — effect on: enzyme activity; action: inhibitor; tested at: 0.5 µM; reference: control; endpoint: remaining activity
Target: Myotonin-protein kinase (DMPK, Homo sapiens, UniProt Q09013)
Construct (Q09013 1-629): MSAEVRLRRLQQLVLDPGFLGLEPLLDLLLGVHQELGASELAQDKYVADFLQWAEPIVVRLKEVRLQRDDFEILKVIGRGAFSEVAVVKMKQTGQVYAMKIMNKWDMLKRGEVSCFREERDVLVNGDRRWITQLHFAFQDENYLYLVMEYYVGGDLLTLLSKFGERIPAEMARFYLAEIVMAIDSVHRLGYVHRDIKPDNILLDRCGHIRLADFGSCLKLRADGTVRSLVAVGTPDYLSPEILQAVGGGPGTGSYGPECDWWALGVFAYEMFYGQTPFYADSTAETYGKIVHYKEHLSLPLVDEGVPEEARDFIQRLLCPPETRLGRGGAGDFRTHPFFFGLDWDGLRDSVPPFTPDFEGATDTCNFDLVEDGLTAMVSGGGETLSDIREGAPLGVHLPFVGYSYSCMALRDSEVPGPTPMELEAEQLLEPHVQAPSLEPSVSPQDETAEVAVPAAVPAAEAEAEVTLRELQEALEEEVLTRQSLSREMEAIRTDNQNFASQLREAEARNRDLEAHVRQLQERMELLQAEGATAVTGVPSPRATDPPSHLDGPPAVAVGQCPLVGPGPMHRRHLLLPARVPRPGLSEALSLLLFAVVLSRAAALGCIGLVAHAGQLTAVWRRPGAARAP
CO[C@H]1C[C@@H]2CC[C@@H](C)[C@@](O)(O2)C(=O)C(=O)N2CCCC[C@H]2C(=O)O[C@H]([C@H](C)C[C@@H]2CC[C@@H](O)[C@H](OC)C2)CC(=O)[C@H](C)/C=C(\C)[C@@H](O)[C@@H](OC)C(=O)[C@H](C)C[C@H](C)/C=C/C=C/C=C/1C: 109%
Cn1c2ccccc2c2c3c(c4c5ccccc5n(CCC#N)c4c21)CNC3=O: 101%
O=C(O)c1ccc2c3c1cccc3c(=O)n1c3ccccc3nc21: 98.9%
CCOC(=O)c1c(C)[nH]c(/C=C2\C(=O)Nc3ccccc32)c1C: 101%
Oc1ccc(-c2nc(-c3ccncc3)c(-c3ccc(F)cc3)[nH]2)cc1: 106%
N#CC(C#N)=C(N)/C(C#N)=C/c1ccc(O)cc1: 101%
CN(C)c1ccc(C=C2C(=O)Nc3ccccc32)cc1: 105%

Set 4 — technique: protein-binding microarray; form: double-stranded DNA, one strand shown; sample: in vitro; tested at: not given; direction: higher = stronger binding; endpoint: E-score
Target: Myc proto-oncogene protein, bHLH-zipper, MAX partner unstated (MYC, Homo sapiens, UniProt P01106, residues 368-449)
UniProt P01106, sequence (368-449, looked up): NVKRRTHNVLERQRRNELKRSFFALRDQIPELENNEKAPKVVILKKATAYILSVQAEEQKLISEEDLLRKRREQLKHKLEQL
Setting: k-mer, scored over probes, only values ≥0.25
CCGCACAC: 0.264
CCGCCCCG: 0.347
CACGTTAA: 0.304
ATGTCACG: 0.325
ACGCGGAG: 0.263
ACCATGTG: 0.481
CGCCGCGC: 0.338
ATGCCATG: 0.36

Excerpt of the above (set 2):
Macrophage colony-stimulating factor 1 receptor (CSF1R, Homo sapiens, UniProt P07333); cell-free assay: 96%
Mitogen-activated protein kinase kinase kinase kinase 1 (MAP4K1, Homo sapiens, UniProt Q92918); cell-free assay: 100%
Ankyrin repeat and protein kinase domain-containing protein 1 (ANKK1, Homo sapiens, UniProt Q8NFD2); cell-free assay: 82%
Glycogen synthase kinase-3 alpha (GSK3A, Homo sapiens, UniProt P49840); cell-free assay: 100%
